Assay results collected from several papers.
Protocols differ between the studies behind these lines. ± gives the spread as reported.

| Substance | test | system | setting | half-life [h] |
| --- | --- | --- | --- | --- |
| CN(Cc1ccc(/C=C/C(=O)Nc2ccccc2N)cc1)CC12CC3CC(CC(C3)C1)C2 | LC-MS/MS | rat, brain | 1 mg/kg | 6.8 |
| CC(C)CNC(=O)/C=C/CCc1ccc2c(c1)OCO2 | – | rat, sham-operated, plasma | oral, 50 mg/kg | 3.92 ± 1.87 |
| CC1(C)C2CCC1(C)C(OC(=O)/C=C/c1ccc(O)c(O)c1)C2 (stereo not shown) | – | Sprague-Dawley rat, plasma | oral, 30 mg/kg, /2α1 | 0.17 ± 0.04 |
| Cn1cc(C(N)=O)c(NC2C3CC4CC2CC(OS(=O)(=O)O)(C4)C3)c2ccnc1-2 (stereo not shown) | – | Japanese adults, moderate hepatic impairment, plasma | oral, 150 mg single dose | 14.1 |
| N[C@@H](COc1ccccc1C(F)(F)F)c1ccccc1 | – | male Sprague-Dawley rat | oral, 25 mg/kg | 5.3 |
| COC(=O)C(Cc1c[nH]cn1)NC(=O)C1(C)C(O)CCC2(C)C1CCC1(C)C2CC=C2C3C(C)C(C)CCC3(C)CCC21C (stereo not shown) | – | Wistar rat, colon homogenate | 90 µg/mL, 12 h, 37 °C | 8.57 |
| CCC(CC)[C@H](NC(C)=O)[C@@H]1[C@H](O)[C@@H](C(=O)N[C@H](C(=O)O)[C@@H](C)CC)C[C@H]1NC(=N)N | – | male Sprague-Dawley rats, rat intestinal fluid | 100 µg/mL, pH 6.6, 37 °C | 9.4 ± 0.1 |
| CN[C@@H]1[C@H](O)[C@H](NC)[C@H]2O[C@]3(O)[C@H](O[C@@H]2[C@H]1O)O[C@H](C)C[C@@]3(O)CNCc1ccc(OC(F)(F)F)cc1 | – | rat | iv, 10 mg/kg | 1.99 |
| CC(C)C[C@@H]1NC(=O)[C@H](C(C)C)NC(=O)[C@H](CC(N)=O)NC(=O)[C@H](CO)NC(=O)[C@H](CO)NC(=O)[C@H](CC(=O)O)NC(=O)[C@H](CC(=O)O)NC(=O)[C@H](Cc2ccccc2)NC(=O)[C@H](Cc2ccc(O)cc2)NC(=O)[C@@H](N)CSSC[C@@H](C(=O)N[C@@H](CCCCN)C(=O)N[C@@H](CCCCN)C(=O)N[C@@H](Cc2ccc(O)cc2)C(=O)N[C@@H](CCCNC(=N)N)C(=O)N[C@@H](CO)C(=O)O)NC1=O | – | Sprague-Dawley rat, male, plasma | 0.1 mg/mL, 37 °C, in vitro stability | 5.97 |
| CN[C@@H]1[C@H](O)[C@H](NC)[C@H]2O[C@]3(O)[C@H](O[C@@H]2[C@H]1O)O[C@H](C)C[C@@]3(O)CNCc1ccc(F)cc1 | – | rat | intravenous, 10 mg/kg | 1.12 |
| Cc1ccc(O)c2c3c(nn12)CCC(C)(NC(=O)c1ccc(-n2cnc4cc(C(=O)O)ccc42)cc1Cl)C3 (stereo not shown) | – | rat | – | 0.38 |
| Ac-CSNLSTCXLGKLSQDLHRLQTYPKTDVGANAP-NH2 (N-acetyl, C-amide) | ELISA | peptide, high-fat diet Sprague Dawley rats, plasma | subcutaneous, 4 nmol/kg | 23.4 ± 2 |
| COc1cccc(-c2n[nH]c([S+]([O-])Cc3ccccn3)n2)c1OC (stereo not shown) | – | Sprague-Dawley rat, male and female, plasma | oral, 100 mg/kg of parent drug | 2.56 to 3.05 |
| Cc1ccc(OCC(=O)N(Cc2cccs2)c2ccn[nH]2)cc1 | – | Sprague-Dawley rat, both sexes, plasma | intravenous, 1 mg/kg | 0.25 to 0.3 |
| Cc1noc(C)c1Cn1cc(N2C(=O)CN(Cc3cccc(O[C@@H]4O[C@H](C(=O)O)[C@@H](O)[C@H](O)[C@H]4O)c3)C2=O)cn1 | – | rat Sprague-Dawley male, plasma | oral, 30 mg/kg of parent drug | 1.7 |
| COc1cc2oc(-c3ccc(O)cc3)cc(=O)c2c(O)c1[C@@H]1O[C@H](CO)[C@@H](O)[C@H](O)[C@H]1O[C@@H]1O[C@H](CO)[C@@H](O)[C@H](O)[C@H]1O | – | male Sprague-Dawley rat, normal, plasma | oral, 6.8 g/kg | 3.01 ± 0.9 |
| CCC(CC)[C@H](NC(C)=O)[C@@H]1[C@H](O)[C@@H](C(=O)OCCOC(=O)[C@@H](N)C(C)C)C[C@H]1NC(=N)N | – | male Sprague-Dawley rats, rat gastric fluid | 80 µg/mL, pH 1.3, 37 °C | 3.38 ± 0.25 |
| COc1cc(C=CC(=O)OCC2OC(OC3C(c4c(OC)cc5oc(-c6ccc(O)cc6)cc(=O)c5c4O)OC(CO)C(O)C3O)C(O)C(O)C2O)ccc1O (stereo not shown) | – | male Sprague-Dawley rat, PCPA-induced insomnia, plasma | oral, 6.8 g/kg | 1.39 ± 0.48 |
| C=C(C)C(=O)Nc1ccc(-c2c(-c3ccc(Oc4nccc(C)n4)cc3)c3c(N)ncnc3n2C)cc1 | – | Sprague-Dawley rat | intravenous, dose not given | 0.37 |
| Cc1noc(C)c1Cn1cc(N2C(=O)CN(Cc3cccc(OS(=O)(=O)O)c3)C2=O)cn1 | – | rat Sprague-Dawley male, plasma | oral, 100 mg/kg of parent drug | 4.7 |
| CCCCOc1nc(N)c2[nH]c(=O)n(CCCN(CCCN3CCOCC3)Cc3cccc(CC(=O)OC)c3)c2n1 | – | rat, whole blood | in vitro | 0.00333 |
| COC(=O)/C=C/C(=O)c1ccc(OC)cc1 | – | Sprague-Dawley rat, both sexes, plasma | oral, 200 mg/kg | 7.21 ± 0.57 |

Some of these lines once more:
| Substance | test | system | setting | half-life [h] |
| --- | --- | --- | --- | --- |
| CN[C@@H]1[C@H](O)[C@H](NC)[C@H]2O[C@]3(O)[C@H](O[C@@H]2[C@H]1O)O[C@H](C)C[C@@]3(O)CNCc1ccc(OC(F)(F)F)cc1 | – | rat | iv, 10 mg/kg | 1.99 |
| CC(C)C[C@@H]1NC(=O)[C@H](C(C)C)NC(=O)[C@H](CC(N)=O)NC(=O)[C@H](CO)NC(=O)[C@H](CO)NC(=O)[C@H](CC(=O)O)NC(=O)[C@H](CC(=O)O)NC(=O)[C@H](Cc2ccccc2)NC(=O)[C@H](Cc2ccc(O)cc2)NC(=O)[C@@H](N)CSSC[C@@H](C(=O)N[C@@H](CCCCN)C(=O)N[C@@H](CCCCN)C(=O)N[C@@H](Cc2ccc(O)cc2)C(=O)N[C@@H](CCCNC(=N)N)C(=O)N[C@@H](CO)C(=O)O)NC1=O | – | Sprague-Dawley rat, male, plasma | 0.1 mg/mL, 37 °C, in vitro stability | 5.97 |
| CN[C@@H]1[C@H](O)[C@H](NC)[C@H]2O[C@]3(O)[C@H](O[C@@H]2[C@H]1O)O[C@H](C)C[C@@]3(O)CNCc1ccc(F)cc1 | – | rat | intravenous, 10 mg/kg | 1.12 |
| Cc1ccc(O)c2c3c(nn12)CCC(C)(NC(=O)c1ccc(-n2cnc4cc(C(=O)O)ccc42)cc1Cl)C3 (stereo not shown) | – | rat | – | 0.38 |
